Assay results pooled from the literature.
Parts stem from different laboratories: compare values within a part only. Changes are numbered by the printed parent chain.
Sequence of UniProt Q9FGV1 (whole entry, looked up): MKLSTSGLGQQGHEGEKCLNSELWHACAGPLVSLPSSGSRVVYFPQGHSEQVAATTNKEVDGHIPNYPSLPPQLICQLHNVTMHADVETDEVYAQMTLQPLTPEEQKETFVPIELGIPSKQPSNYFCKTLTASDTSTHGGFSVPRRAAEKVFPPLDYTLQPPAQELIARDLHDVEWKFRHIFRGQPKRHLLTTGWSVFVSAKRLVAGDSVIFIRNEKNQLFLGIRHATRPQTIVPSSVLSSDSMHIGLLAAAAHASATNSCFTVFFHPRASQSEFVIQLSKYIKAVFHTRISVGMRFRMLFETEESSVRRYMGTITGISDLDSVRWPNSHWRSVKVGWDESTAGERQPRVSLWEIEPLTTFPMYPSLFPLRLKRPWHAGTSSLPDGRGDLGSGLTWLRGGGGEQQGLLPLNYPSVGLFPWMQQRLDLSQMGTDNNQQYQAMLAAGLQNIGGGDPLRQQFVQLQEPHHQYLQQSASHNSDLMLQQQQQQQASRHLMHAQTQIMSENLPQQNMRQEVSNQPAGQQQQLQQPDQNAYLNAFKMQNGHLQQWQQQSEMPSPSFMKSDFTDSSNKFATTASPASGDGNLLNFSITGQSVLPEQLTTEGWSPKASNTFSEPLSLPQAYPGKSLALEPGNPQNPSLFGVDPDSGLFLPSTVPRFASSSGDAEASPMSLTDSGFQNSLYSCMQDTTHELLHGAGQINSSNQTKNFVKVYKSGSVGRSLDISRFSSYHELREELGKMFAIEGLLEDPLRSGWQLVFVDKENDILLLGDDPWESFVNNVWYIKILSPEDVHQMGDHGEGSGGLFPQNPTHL
Sequence of UniProt O23661 (whole entry, looked up): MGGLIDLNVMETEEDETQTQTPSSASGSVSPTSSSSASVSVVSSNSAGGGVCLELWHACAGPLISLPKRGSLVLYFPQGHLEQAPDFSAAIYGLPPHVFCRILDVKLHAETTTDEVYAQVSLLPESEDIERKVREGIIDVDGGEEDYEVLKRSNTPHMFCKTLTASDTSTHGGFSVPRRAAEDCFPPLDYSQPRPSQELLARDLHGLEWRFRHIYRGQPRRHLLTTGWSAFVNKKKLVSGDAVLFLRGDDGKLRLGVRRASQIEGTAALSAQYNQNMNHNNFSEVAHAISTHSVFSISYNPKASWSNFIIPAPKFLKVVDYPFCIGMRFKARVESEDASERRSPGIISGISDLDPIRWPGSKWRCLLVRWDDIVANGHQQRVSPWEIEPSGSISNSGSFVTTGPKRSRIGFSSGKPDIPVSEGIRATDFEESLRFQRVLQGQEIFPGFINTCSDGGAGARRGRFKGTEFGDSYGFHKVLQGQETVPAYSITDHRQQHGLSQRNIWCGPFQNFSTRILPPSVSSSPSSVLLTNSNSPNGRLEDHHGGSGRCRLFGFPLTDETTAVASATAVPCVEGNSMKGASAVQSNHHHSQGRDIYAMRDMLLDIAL

Study 1 — target: FOSB, bZIP domain (human); technique: DHFR protein complementation; sample: yeast; baseline: wild-type JUN-FOS pair; direction: higher = stronger binding
Notes: single substitutions, most at no-binding floor
Starting sequence: JUN, bZIP domain (human); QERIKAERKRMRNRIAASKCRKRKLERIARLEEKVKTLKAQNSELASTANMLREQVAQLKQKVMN; partner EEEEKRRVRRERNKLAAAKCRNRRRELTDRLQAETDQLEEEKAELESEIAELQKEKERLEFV
| Change | binding fitness [natural log] |
| --- | --- |
| E32H | -0.253 |
| A29F | -0.224 |
| S47N | -0.0862 |
| N42A | -0.582 |
| Q41D | -0.399 |
| Q55T | -0.142 |
| E44T | -0.162 |
| A46Q | -0.0462 |
| E44N | -0.29 |
| E32C | 0.101 |
| N42I | -0.0201 |
| K36A | 0.061 |

Study 2 — technique: DHFR PCA, deep sequencing; sample: yeast; together with: (+)-ABA 200 µM; baseline: wild-type fitted maximum; direction: higher = stronger binding
Target: ABI1, truncated, D143A, DHFR fusion (Arabidopsis thaliana)
Notes: methotrexate growth selection, single substitutions
Starting sequence: PYL1, truncated, DHFR fusion (Arabidopsis thaliana); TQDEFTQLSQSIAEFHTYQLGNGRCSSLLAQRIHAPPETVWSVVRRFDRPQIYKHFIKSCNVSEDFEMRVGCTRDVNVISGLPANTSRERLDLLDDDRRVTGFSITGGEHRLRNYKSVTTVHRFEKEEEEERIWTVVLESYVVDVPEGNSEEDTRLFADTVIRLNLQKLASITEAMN; partner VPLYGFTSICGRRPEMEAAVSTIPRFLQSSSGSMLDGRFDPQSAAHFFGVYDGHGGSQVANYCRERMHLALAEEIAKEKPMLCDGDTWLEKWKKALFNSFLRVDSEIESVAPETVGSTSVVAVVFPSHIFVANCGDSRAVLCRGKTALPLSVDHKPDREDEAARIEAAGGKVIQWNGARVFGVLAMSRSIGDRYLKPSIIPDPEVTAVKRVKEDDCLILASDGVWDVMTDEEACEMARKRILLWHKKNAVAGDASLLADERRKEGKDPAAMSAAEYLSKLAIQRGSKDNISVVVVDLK
| Change | relative binding score |
| --- | --- |
| I12E | 49.9% |
| G81Y | 2.26% |
| S140I | -5.41% |
| I162C | 84.5% |
| V70P | 106% |
| S80Y | 72.5% |
| A175Q | 99.9% |
| T173C | 107% |
| S171Y | 95.5% |
| V136R | 25.6% |
| D65Q | 98.1% |
| D96G | 47.8% |
| V137G | -6.54% |
| A30P | 71.5% |
| N165T | 1.42% |

Study 3 — target: UBE2Z UBC core domain (UniProt Q9H832); technique: yeast two-hybrid; sample: yeast; notes: mostly zero background; baseline: not given; direction: higher = stronger interaction
B1: VPS8 RING domain (UniProt Q8N3P4); chain TRGLNPKQDYCSICLQQYKRRQEMADEIIVFSCGHLYHSFCLQNKECTVEFEGQTRWTCYKCSSSNKVGKLSE
B2: RNF186 RING domain (UniProt Q9NXI6); chain HSGSTECDLECLVCREPYSCPRLPKLLACQHAFCAICLKLLLCVQDNTWSITCPLCRKVTAVPGGLI
B3: MARCHF1 RING domain (UniProt Q8TCQ1); chain TAPRSQSRLSVCPSTQDICRICHCEGDEESPLITPCRCTGTLRFVHQSCLHQWIKSSDTRCCELCKYDFIMETKLKPLRKWE
Residues (chain): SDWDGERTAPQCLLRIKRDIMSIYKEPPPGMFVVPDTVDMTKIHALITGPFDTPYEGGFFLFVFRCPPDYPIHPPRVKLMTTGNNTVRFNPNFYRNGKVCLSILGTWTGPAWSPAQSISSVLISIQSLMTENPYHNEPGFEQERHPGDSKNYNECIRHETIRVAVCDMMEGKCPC
| Molecule | lacZ reporter activity |
| --- | --- |
| DDVLTKDAGECVICLEELLQGDTIARLPCLCIYHKSCIDSWFEVNRSCPEHPAD (ZNRF1 RING domain (UniProt Q8ND25)) | 0 |
| ASPKIFQKTKCSICNSALELPSVHFLCGHSFHQHCFESYSESDADCPTCLPENRKVMDMI (VPS11 RING domain (UniProt Q9H270)) | 0 |
| LEALSSDFLACKICLEQLRAPKTLPCLHTYCQDCLAQLADGGRVRCPECRETVPVPPEGV (TRIM56 RING domain (UniProt Q9BRZ2)) | 0 |
| B1 (VPS8 RING domain) | 0 |
| B2 (RNF186 RING domain) | 0 |
| B3 (MARCHF1 RING domain) | 0 |
| ASEEEFQFLRCQQCQAEAKCPKLLPCLHTLCSGCLEASGMQCPICQAPWPLGADTP (PML RING domain (UniProt P29590)) | 0 |

Study 4 — technique: RNA Bind-n-Seq; form: RNA; sample: in vitro; tested at: 20 nM; notes: 6-mer, flanks averaged, single round; together with: 150 mM KCl; baseline: input library; direction: higher = stronger binding
Target: TAR DNA-binding protein 43, full length, His tag (TARDBP, Homo sapiens, UniProt Q13148, residues 1-414)
| Oligonucleotide | 6-mer enrichment (R) |
| --- | --- |
| GUAAGU | 0.923 |
| AGGCUG | 1.36 |
| CUAAUC | 0.553 |
| CGCUCG | 0.746 |
| ACGAGA | 0.855 |
| GCGCAA | 1.01 |
| AAACUU | 0.584 |
| GGCGCU | 1.49 |
| ACAAAA | 0.683 |
| AACCUG | 0.656 |
| AGCUGC | 0.798 |
| UGCUCA | 0.607 |
| ACCGAA | 0.676 |

Study 5 — target: CCND1, cyclin fold, Cln2 fusion (human); technique: yeast growth competition, sequencing; sample: yeast; notes: weak parent motif; baseline: not given; direction: higher = stronger binding
Starting sequence: BRCA2 docking peptide (human); PSIKRNLLNEFDR
| Change | normalised enrichment score |
| --- | --- |
| PSIKRNCLNEFDR [L7C] | 0.0679 |
| PHIKRNLLNEFDR [S2H] | -0.0895 |
| PSRKRNLLNEFDR [I3R] | -0.222 |
| PSIKRKLLNEFDR [N6K] | 0.172 |
| PSIKRNLWNEFDR [L8W] | -0.304 |
| PSIKENLLNEFDR [R5E] | 0.173 |
| PSIIRNLLNEFDR [K4I] | -0.149 |
| PSIHRNLLNEFDR [K4H] | 0.33 |
| PSHKRNLLNEFDR [I3H] | 0.113 |
| PSIKRNLLNEFWR [D12W] | 1.45 |
| PSIKRNLLNEFPR [D12P] | 0.47 |

Study 6 — technique: RNA Bind-n-Seq; form: RNA; sample: in vitro; tested at: 365 nM; baseline: no-protein control; direction: higher = stronger binding
Target: RNA binding protein fox-1 homolog 2, RRM domain, GST-SBP tag (RBFOX2, Homo sapiens, UniProt O43251-10, residues 100-194)
Notes: natural RNA segment, single round, ends assumed
Shared flanks, not repeated: GGGAGUUCUACAGUCCGACGAUC … UGGAAUUCUCGGGUGCCAA
Target sequence (chain): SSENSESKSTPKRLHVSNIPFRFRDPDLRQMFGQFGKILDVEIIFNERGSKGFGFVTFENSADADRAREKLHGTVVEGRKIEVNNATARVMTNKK
| Oligonucleotide | RBNS enrichment (R) |
| --- | --- |
| GGUAUUUUCGAACAAUAGGAAACUAUUUUUUCUCCUUUUUUUACAGUUUUAGUACGUAUCUGGCUUGUAUGUGGAAGACUAAAAAGUUGAUUUGCUAAAUGUGGUCUUUG | 0.599 |
| CUCCCCUUGAGGCUGCUGCCUGCUUGGCCAGCCUCUGUCCAGAAAGGACCAGAGAAAGCCAGGCUGGAUCGUCACAUGCCGGGGAGCAAUGUGGAUGGCCUGGGGACUCC | 0.372 |
| UGACUCACAGCCCAUGCUGUCAUCUGUGGCACAAGUGGGUGUGAGUACGUCCUGCAUGCACUAACGGUGCAGAACAUGGCAUGGUGACUAGAAAGUAAAACUCCUUUUGA | 0.52 |
| UGCCUAGCUUUUGCAACUCUUUAAGCUUACUGUGAUCACGUGCCCUCUCAGUAGGGGGCUUUUAGAGCAGUUGAAAUCUGCAGAACUGAACCUCUGAGGGCCAAAAUAGG | 0.603 |
| GAUUAAAAACUUCAAAUGAUGGAAAAAGAGAUCUCUUGUGAAACGAAACGCCCCGUGUUAAUAACUUGGUCUGAAAUUGUUUUUAUGAGCCGGGCCCCCUGUGCCUCUAG | 0.621 |
| CCUUAAGGACAAUUAUUCUUAAUAAUGCUUAUAGAAAAUGUUCUCUAAUUAAACAUGCCAAAAGGAAAAAGUAAGAGAAAGAGGGAGCAAGAAGAAAAUGGAAGAAAAAG | 0.643 |
| GUUUUAAGAAAAUGUAGUGCCUCGUGGCUCCCUGGUUUAGUAACUUGGAGAGACAGUCUGUAGGAAAAAGAUAAUCUAAAAAAAGGUGUUAGCCUUCCUUGAAGUAUUUG | 0.469 |
| UAACAGUCUUUCUUAAAAUCAGUAUACUAUUUUAGUGGACUUCUGUCUCUAUGAGACAGCUAGUCCAUUACUGUUACUAUUGUAUUACUGUCAUGUUCUUUACAUGUCAC | 0.241 |
| UUCGACACCAGGUACAGUAGGGCGGCACUUAUGACACCUACGUCGGCUCUGGUUGGCUGAUCAAGGGCAUGGACCAGGGGCUGCUGGGCAUGUGUCCUGGAGAGAGAAGG | 1.06 |
| UUCACGGAUACACCAGCAGUGUUGGGAUAGGAGCAGCCAGGCCUCAGCAGGAGGGACCAGGGCCGACAGGAACACCAGAGGUUCUUGGCUGUUCCUCUAUCAGCGAAGAC | 0.644 |
| UUUGUGCAUCCUACAGUGAGGAGUAACUGAUCAGGUGUCUAUAACAUUUUUCAUUCUCUCUGGAAACAGACUCAGGUUUCUUUGGACCAAAUCCAAAAGAACACAUAGCU | 0.329 |
| GCCUAGCUUACACAGAGCCUGGGUUCAGUCCUUCACACUGUAUAAACUGGGCGAGACAGAGCAUGUUUGCAGUCCUAGCAUUCAGCAGGUAGAGACAGGAAGAUGAGAAG | 0.364 |

Mixed results
| Substance | partner | assay | how to read | measurement | value |
| --- | --- | --- | --- | --- | --- |
| ETT (Arabidopsis thaliana, UniProt O23661) | ARF8 699-811 (Arabidopsis thaliana, UniProt Q9FGV1) | two-hybrid | baseline: out of 4 tests, higher = firmer interaction | positive tests | 0 |

Repeated from above (study 4):
| Oligonucleotide | 6-mer enrichment (R) |
| --- | --- |
| GUAAGU | 0.923 |
| AGGCUG | 1.36 |
| CUAAUC | 0.553 |
| CGCUCG | 0.746 |
| ACGAGA | 0.855 |
| GCGCAA | 1.01 |
| AAACUU | 0.584 |
| GGCGCU | 1.49 |
